Published values collected from several papers.
A part holds a random share of what one study measured.
Sequence of UniProt O15530 (whole entry, looked up): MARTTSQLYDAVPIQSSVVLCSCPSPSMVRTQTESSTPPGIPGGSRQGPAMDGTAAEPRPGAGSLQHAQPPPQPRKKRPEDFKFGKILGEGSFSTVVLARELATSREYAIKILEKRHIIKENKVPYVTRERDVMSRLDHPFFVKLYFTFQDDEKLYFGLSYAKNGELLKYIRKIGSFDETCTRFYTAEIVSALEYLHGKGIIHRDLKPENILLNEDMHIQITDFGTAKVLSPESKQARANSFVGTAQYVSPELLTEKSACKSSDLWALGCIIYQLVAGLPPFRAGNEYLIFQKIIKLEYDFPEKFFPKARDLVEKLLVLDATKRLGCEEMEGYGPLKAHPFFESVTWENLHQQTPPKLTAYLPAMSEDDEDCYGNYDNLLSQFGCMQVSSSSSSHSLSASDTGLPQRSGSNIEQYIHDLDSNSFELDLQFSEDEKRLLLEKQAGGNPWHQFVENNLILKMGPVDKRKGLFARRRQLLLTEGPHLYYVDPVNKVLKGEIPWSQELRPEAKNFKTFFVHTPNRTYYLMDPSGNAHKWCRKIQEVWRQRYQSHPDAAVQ
Sequence of UniProt P30530 (whole entry, looked up): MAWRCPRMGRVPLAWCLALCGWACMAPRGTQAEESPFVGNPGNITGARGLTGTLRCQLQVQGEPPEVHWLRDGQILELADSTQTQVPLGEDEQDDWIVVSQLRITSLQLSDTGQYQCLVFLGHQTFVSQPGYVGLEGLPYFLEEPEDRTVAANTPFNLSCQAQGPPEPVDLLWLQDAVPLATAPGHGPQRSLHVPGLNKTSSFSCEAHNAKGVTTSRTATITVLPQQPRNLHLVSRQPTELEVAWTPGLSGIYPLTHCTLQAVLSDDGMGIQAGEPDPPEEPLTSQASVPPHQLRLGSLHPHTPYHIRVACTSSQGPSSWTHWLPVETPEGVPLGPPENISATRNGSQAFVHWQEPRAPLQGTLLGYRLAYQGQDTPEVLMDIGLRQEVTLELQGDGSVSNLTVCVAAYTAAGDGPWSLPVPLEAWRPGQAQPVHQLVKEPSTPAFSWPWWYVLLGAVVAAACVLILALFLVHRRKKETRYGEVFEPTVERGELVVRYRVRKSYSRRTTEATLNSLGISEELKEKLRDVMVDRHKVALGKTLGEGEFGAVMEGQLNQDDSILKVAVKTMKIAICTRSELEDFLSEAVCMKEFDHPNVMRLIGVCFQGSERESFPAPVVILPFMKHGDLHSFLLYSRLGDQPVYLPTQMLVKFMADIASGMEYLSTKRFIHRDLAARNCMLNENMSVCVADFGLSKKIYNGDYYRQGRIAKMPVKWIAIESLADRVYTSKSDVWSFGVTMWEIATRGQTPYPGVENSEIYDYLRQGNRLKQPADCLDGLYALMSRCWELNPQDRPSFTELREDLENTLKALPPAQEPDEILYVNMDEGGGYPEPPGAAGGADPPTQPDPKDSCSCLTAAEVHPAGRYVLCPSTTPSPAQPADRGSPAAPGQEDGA
Sequence of UniProt P9WI81 (whole entry, looked up): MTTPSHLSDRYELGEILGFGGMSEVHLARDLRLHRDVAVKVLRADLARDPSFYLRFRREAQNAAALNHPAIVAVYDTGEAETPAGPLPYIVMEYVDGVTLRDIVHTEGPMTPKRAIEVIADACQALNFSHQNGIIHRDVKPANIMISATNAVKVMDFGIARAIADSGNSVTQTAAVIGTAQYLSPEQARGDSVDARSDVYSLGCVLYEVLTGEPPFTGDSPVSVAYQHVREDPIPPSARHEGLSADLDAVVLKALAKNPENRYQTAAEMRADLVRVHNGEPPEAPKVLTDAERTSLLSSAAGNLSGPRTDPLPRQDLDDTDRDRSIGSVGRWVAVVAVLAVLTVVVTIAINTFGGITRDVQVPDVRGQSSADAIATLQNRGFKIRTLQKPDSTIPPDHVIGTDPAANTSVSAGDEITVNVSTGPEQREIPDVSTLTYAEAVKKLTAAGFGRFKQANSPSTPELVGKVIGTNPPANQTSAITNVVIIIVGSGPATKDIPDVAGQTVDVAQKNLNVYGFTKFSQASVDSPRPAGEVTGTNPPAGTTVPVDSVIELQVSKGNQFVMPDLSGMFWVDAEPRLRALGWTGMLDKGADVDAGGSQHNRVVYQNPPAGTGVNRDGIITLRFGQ
Sequence of UniProt Q9UEE5 (whole entry, looked up): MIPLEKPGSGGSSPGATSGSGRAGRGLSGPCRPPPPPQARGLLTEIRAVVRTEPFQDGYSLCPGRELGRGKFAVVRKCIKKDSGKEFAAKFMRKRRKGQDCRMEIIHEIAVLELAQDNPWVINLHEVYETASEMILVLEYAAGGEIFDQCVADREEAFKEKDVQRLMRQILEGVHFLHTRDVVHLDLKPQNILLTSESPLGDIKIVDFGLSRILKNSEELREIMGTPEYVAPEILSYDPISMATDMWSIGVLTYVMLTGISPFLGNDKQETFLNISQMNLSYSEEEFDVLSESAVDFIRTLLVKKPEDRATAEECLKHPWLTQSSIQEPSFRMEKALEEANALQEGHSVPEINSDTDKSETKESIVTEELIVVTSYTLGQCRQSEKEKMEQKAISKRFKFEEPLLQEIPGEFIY
Sequence of UniProt Q9BYP7 (whole entry, looked up): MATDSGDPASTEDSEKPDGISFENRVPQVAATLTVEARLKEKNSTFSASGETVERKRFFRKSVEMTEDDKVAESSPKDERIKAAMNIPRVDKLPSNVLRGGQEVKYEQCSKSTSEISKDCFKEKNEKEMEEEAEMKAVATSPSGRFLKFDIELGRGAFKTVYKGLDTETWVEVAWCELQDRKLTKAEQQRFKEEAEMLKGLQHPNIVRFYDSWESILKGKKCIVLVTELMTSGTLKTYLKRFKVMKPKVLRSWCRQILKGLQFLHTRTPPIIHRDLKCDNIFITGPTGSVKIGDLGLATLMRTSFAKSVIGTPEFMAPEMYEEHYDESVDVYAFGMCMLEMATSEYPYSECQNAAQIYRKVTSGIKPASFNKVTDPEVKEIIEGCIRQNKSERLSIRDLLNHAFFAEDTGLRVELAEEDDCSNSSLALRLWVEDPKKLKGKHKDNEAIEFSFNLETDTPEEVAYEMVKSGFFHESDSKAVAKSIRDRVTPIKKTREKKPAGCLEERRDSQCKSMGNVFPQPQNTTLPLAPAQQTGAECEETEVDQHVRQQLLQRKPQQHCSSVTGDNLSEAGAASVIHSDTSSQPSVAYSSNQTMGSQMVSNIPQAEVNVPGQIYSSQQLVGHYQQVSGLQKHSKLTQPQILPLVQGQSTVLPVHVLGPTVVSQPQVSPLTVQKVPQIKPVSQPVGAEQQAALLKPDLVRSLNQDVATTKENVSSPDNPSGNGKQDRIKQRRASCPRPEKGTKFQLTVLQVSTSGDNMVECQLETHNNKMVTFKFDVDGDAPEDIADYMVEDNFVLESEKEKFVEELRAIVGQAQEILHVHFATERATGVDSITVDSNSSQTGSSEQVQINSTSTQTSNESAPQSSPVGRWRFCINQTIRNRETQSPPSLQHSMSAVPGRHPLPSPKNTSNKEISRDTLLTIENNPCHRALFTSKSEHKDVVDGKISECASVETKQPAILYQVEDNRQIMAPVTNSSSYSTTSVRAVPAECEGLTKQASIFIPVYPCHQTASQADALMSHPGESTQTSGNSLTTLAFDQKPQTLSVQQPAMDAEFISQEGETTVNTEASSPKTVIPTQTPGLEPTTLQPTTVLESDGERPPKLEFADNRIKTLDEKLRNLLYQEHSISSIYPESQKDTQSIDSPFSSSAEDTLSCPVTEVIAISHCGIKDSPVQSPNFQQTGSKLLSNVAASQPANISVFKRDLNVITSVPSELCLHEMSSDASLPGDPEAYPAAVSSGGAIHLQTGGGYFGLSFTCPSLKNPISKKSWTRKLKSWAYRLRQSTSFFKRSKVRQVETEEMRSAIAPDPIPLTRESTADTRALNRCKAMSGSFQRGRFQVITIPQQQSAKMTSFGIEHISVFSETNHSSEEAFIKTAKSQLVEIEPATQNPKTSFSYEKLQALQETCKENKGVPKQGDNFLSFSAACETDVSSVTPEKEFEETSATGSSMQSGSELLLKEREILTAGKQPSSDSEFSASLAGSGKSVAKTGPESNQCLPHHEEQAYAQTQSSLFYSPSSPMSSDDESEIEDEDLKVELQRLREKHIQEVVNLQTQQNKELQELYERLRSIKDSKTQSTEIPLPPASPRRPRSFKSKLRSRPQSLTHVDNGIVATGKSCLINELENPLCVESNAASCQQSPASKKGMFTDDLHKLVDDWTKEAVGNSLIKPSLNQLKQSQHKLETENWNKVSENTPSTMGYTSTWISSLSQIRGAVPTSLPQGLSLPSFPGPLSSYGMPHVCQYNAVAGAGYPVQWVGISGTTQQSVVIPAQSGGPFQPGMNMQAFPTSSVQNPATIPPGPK

Series 1
SMILES: COC[C@H]1OC(=O)c2coc3c2[C@@]1(C)C1=C(C3=O)[C@@H]2CCC(=O)[C@@]2(C)C[C@H]1OC(C)=O
Effect on: enzyme activity
Action: inhibitor
Tested at: 0.5 µM
Baseline: control
target | remaining activity [%]
MAP kinase-activated protein kinase 3 (MAPKAPK3, Homo sapiens, UniProt Q16644) | 96.5
Dual specificity tyrosine-phosphorylation-regulated kinase 3 (DYRK3, Homo sapiens, UniProt O43781) | 92.6
Testis-specific serine/threonine-protein kinase 2 (TSSK2, Homo sapiens, UniProt Q96PF2) | 96.9
Ephrin type-B receptor 1 (EPHB1, Homo sapiens, UniProt P54762) | 89.9
Tyrosine-protein kinase ABL1 (ABL1, Homo sapiens, UniProt P00519) | 101
Serine/threonine-protein kinase WNK3 (WNK3, Homo sapiens, UniProt Q9BYP7) | 99.5
Phosphorylase b kinase gamma catalytic chain, skeletal muscle/heart isoform (PHKG1, Homo sapiens, UniProt Q16816) | 92.6
Homeodomain-interacting protein kinase 4 (HIPK4, Homo sapiens, UniProt Q8NE63) | 99.3
Calcium/calmodulin-dependent protein kinase type II subunit beta (CAMK2B, Homo sapiens, UniProt Q13554) | 95.7
Tyrosine-protein kinase receptor UFO (AXL, Homo sapiens, UniProt P30530) | 99
Serine/threonine-protein kinase 17A (STK17A, Homo sapiens, UniProt Q9UEE5) | 96.2
Ribosomal protein S6 kinase alpha-6 (RPS6KA6, Homo sapiens, UniProt Q9UK32) | 96.7
3-phosphoinositide-dependent protein kinase 1 (PDPK1, Homo sapiens, UniProt O15530) | 96.5

Series 2
Target: Calcium/calmodulin-dependent protein kinase type II subunit alpha (CAMK2A, Homo sapiens, UniProt Q9UQM7)
Sequence of UniProt Q9UQM7 (whole entry, looked up): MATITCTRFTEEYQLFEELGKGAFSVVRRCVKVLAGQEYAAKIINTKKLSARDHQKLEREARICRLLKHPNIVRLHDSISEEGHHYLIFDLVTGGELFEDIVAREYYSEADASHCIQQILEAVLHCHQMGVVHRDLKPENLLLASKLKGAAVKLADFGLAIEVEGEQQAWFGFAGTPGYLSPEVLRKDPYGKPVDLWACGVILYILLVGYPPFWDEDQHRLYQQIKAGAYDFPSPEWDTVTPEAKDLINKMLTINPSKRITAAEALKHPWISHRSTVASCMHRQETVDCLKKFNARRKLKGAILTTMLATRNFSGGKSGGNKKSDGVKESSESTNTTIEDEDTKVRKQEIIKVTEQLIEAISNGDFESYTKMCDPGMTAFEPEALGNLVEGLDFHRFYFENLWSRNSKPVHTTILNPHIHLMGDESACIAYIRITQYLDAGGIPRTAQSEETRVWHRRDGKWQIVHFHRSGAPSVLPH
Effect on: enzyme activity
Action: inhibitor
Tested at: 10 µM
SMILES | inhibition [%]
O=C1C=C2C=C[C@@H]3C[C@@]2(O1)[C@@H]1CCCCN31 | 8
N[C@@H](Cc1cc(I)c(Oc2cc(I)c(OS(=O)(=O)O)c(I)c2)c(I)c1)C(=O)O | 12
CC1=C(O)C(=O)C=C2C1=CC=C1[C@@]2(C)CC[C@@]2(C)[C@@H]3C[C@](C)(C(=O)O)CC[C@]3(C)CC[C@]12C | -38

Series 3
Cell line: mouse MPNST tumor cells
Technique: high-content immunofluorescence imaging
Refers to: nuclear SOX9
Tested at: 10 µM
Time: 12 h
Notes: mean of 2 replicates
Baseline: DMSO control
Reading: higher = more nuclear SOX9
Compound | nuclear SOX9 intensity
C#CCN(C)[C@H](C)Cc1ccccc1 | 100 % of DMSO
COC1(C[S+]([O-])c2ccccc2)CCN(CCc2c[nH]c3ccc(F)cc23)CC1 (stereo not shown) | 110 % of DMSO
CC(C)[N+](C)(CCC(C(N)=O)(c1ccccc1)c1ccccc1)C(C)C | 90.4 % of DMSO

Series 4
Species: human
Medium: microsomes or S9
Tested at: 2 µM
Time: 0.5 h
Structure (SMILES) | remaining compound [%]
Cc1cc(Br)c2[nH]cc(CCN)c2c1 | 6.55
Cc1nn(C)c2ncnc(N3CCN4CCCC4C3)c12 (stereo not shown) | 87.9
Cn1nc(-c2cccc3c2CCNC3)c2c(Cl)cccc21 | 73.7
CC(C)NC(=O)c1cc(Cl)cc(Cl)c1NC(=O)c1cc(OCC(=O)C(C)(C)C)nn1-c1ncccc1Cl | 62.5
COc1ccc2c(c1)C1(CCN(C(=O)c3ccc(C#N)cc3)C1)C(=O)N2 (stereo not shown) | 55.4

Single results of other studies
Compound | target | test | conditions | measurement | value
Cc1c(N2CCNCC2)nc2ccc(Br)cc2c1C(=O)NC[C@H](CCC(=O)O)c1ccccc1Cl | Alpha-2B adrenergic receptor (ADRA2B, Homo sapiens, UniProt P18089) | ligand displacement | 10 µM | inhibition | -3.2%
N#CC1(c2ccccn2)CCN(Cc2cc(C(=O)O)c(=O)n3ccccc23)CC1 | 5-hydroxytryptamine receptor 3A (HTR3A, Homo sapiens, UniProt P46098) | cell-free assay | 10 µM | inhibition | 12%
Cc1cc(-n2nc(Cc3cc(F)cc(C(F)(F)F)c3)nc2C)ccc1C(N)=O | Serine/threonine-protein kinase PknB (pknB, Mycobacterium tuberculosis, UniProt P9WI81) | cell-free assay, competition with immobilised ligand | 1 µM | remaining binding | 78%
CNC(=O)c1cc(C(=O)NC2CC2)cn(Cc2ccccc2)c1=O | Beta-2 adrenergic receptor (ADRB2, Homo sapiens, UniProt P07550) | binding, radioligand binding | 10 µM | inhibition | 16.5%

Some of these lines once more (series 3):
Compound | nuclear SOX9 intensity
C#CCN(C)[C@H](C)Cc1ccccc1 | 100 % of DMSO
COC1(C[S+]([O-])c2ccccc2)CCN(CCc2c[nH]c3ccc(F)cc23)CC1 (stereo not shown) | 110 % of DMSO
CC(C)[N+](C)(CCC(C(N)=O)(c1ccccc1)c1ccccc1)C(C)C | 90.4 % of DMSO
